# Measured values from different studies.
# Numbered parts are unrelated; each lists some results of a single study. Positions count from the first letter of the parent shown.

# Study 1
# Target: RNA binding protein fox-1 homolog 2, RRM domain, GST-SBP tag (RBFOX2, Homo sapiens, UniProt O43251-10, residues 100-194)
# Technique: RNA Bind-n-Seq
# Molecule type: RNA
# Sample: in vitro
# Concentration: 365 nM
# Setting: natural RNA segment, single round, ends assumed
# Baseline: no-protein control
# Direction: higher = stronger binding
# Construct (chain): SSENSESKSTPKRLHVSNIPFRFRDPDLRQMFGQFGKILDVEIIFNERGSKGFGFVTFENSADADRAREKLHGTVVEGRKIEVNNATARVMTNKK
Oligonucleotide,RBNS enrichment (R)
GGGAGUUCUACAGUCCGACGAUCAAGAGUAACACCCACAUACAGAAUUUGUCACAUCCAGAGUAGCACUGUUCCUUAAUACUGGCAUAAUGCUUCCAGGAAGUUUUUCUUUUUUAUAUUUAAAAUGUUACUUUUGGAAUUCUCGGGUGCCAA,0.474
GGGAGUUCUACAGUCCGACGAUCCUGUUGUCGGUGAUUUGUUUGUCUUUCUGAUAGGUUGAAAAUUGUGUAAUAAACUUGAUGACGCUGUAAUCUUUUAUACUGCAUUGUAUUUUUUUCCUUUUGUAACAAAAUGGAAUUCUCGGGUGCCAA,0.372
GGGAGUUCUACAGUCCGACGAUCGAAGCAGCUGUUGGAACUCCUGGUAUUAAUGGAGCCAGAGUGACAUGCAUCCUUCGUCUGUCUCAUCAGCACUGGCGUCAUUCCUUACAGUUUACAGAACUCAUGUAACUUGGAAUUCUCGGGUGCCAA,1.76
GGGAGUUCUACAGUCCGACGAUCUAUCCACAGUCUCUGCCAGUUGGUUUUAUUUGGAGGUUUGUGGGCUUUUUUUAAAAAAAAAAAGUCCUCAAAUCAGGAAGAAACAUCAAAGACUAUGUCCUAGUGGAGGGUGGAAUUCUCGGGUGCCAA,0.459
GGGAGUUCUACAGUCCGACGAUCAGAAGCUUCUGAAAGGUCCAGUUGAUGUGGUGGUAUCAGCCUACGCCCUCAGUGAACUACCCAGCAGGGCUGAUCGCAUUGAGGUCAUUCAGAACUUGUGGCGUAAGACAUGGAAUUCUCGGGUGCCAA,0.377
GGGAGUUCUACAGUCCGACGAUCCCAGUUGUCCCGAUUGUAACUCAAAGGGUGGAAUAUCAAGGUCGUUUUUUUCAUUCCAUGUGCCCAGUUAAUCUUGCUUUCUUUGUUUGGCUGGGAUAGAGGGGUCAAGUUGGAAUUCUCGGGUGCCAA,1.56
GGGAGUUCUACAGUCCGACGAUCACUGUAGACUCCGGUGUGACCCACCACUGGGGAGUUCACACCUAGAAAGAGAUGGAACUAAACUCUACUAUCAGCUGCUUCAAAAACCUUUUGUCUACGGCCUGGGAAGAUGGAAUUCUCGGGUGCCAA,1
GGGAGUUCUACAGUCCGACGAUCUCUAAACAGCCUUUGAGGGUUUUACCCCCUGUGUCUCUUCCCUCCCCAUUGCCUAUUUGCACCCUAUGCAUGUGGUCAUAUGUAAGCUGGAUCAUCUCCACAGCUGUGACUGGAAUUCUCGGGUGCCAA,5.95
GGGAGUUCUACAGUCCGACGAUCUGCUACCACUUCGCAUUUCAUCUGUGAGGCAUUUCAUCUUUUAGACAUGUCUUCAUGUCCAGCUACUUGUUUCACCAUGGCAGACCUCCCUGAGCCUUCUUCCUGCCCUGUGGAAUUCUCGGGUGCCAA,0.425
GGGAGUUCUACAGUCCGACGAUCGCACCCAGACUGCUUCGUGUGCAGGGAAUGCCUUGCGCCCUUCUCCGGAGGCAGCUUUUUUGAGCACGAGGGUCGCCCUUUGUGUGAAAACCAUUUCCAUGCUCAGCGUGUGGAAUUCUCGGGUGCCAA,0.455
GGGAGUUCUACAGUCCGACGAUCAAGAGGAUAUUUGUCAUUUCCUUAAGGCUCUGGAGUGUUGUGUUCGAUUCUGCACAGCCCAGCCUCCCCGAGGGCCUUUCCAAGCACAGUGGGGAUUUCUUAGAACAGGAUGGAAUUCUCGGGUGCCAA,0.287
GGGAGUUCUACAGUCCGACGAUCAUGUUCCUAACAGAUUUUGCUUUUGAAAAAUGCUUGUUACAUGAAUAAUUUGUGGACCAGGGAUUGCUUUUCUGAAGGCAGUAUAGGGAACAUGAAUAUUCAAGAUGAAAUGGAAUUCUCGGGUGCCAA,0.34

# Study 2
# Target: Ras GTPase-activating protein-binding protein 1, full length (G3BP1, Homo sapiens, UniProt Q13283)
# Sequence of UniProt Q13283 (whole entry, looked up): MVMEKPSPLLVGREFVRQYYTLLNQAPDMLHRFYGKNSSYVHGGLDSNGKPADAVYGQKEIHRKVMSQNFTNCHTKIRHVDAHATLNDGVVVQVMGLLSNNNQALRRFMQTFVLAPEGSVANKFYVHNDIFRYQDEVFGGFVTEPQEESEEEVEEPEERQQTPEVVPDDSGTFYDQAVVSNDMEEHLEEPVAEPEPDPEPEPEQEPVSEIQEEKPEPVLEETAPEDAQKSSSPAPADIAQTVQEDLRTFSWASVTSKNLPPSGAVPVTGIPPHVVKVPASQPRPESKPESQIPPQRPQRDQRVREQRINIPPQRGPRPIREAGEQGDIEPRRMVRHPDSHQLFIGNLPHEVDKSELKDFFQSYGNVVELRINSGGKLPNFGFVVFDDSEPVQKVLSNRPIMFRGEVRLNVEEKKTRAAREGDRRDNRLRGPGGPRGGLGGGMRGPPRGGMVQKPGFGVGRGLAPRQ
# Technique: RNA Bind-n-Seq
# Molecule type: RNA
# Sample: in vitro
# Concentration: 200 nM
# Setting: whole 134-nt RNA, ends assumed
# Together with: 150 mM LiCl
# Baseline: input library
# Direction: higher = stronger binding
# Library: 7-deaza-guanosine replaces G
Oligonucleotide,log2 enrichment
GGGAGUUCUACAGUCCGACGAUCGUCCUGUGCUACACAUCGUAUGUACCGAAUCGGGAAAGGGAAAAAAAGGGUUUUUGGGAAAGUAUUAUGUUACGCCGUUCGGAUCUGCACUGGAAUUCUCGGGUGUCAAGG,-1.04
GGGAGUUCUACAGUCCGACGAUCUGGGAGGUGGAUUUUGUUUAUUUUUUUAUCUCAUUUCCAGGGGUGGGAAUUUUUUUUUAAUAUGUGUCAUGAAUAAAGUUGUUUUUGAAAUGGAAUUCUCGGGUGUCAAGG,-0.567
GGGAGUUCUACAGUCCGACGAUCAAGUCCUGUGCUACACAUCGUAUGUACCGAAUCGGGGUUUGGGUUUGGGGUUUGGGAAAGUAUUAUGUUACGCCGUUCGGAUCUGCACUUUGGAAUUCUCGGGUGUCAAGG,-0.73
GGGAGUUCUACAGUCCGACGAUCCCUGUGCUACACAUCGUAUGUACCGAAUCAAAUUUUUUUAAAUUUUUUUAAAUUUUUAAAAAAGUAUUAUGUUACGCCGUUCGGAUCUGCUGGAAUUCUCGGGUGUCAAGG,-2.9
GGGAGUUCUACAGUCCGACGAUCUGGCCCUGGUGGCAUGCGGGGAGGAAGAGGUGGCCUCAUGGAUCGUGGUGGUCCCCGUGGAAUGUUCAGAGGUGGCCGUGGUGGAGACAGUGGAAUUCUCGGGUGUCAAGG,0.709
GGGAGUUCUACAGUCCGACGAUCGUCCUGUGCUACACAUCGUAUGUACCGAAUCGGUUUUUUUGGAAAAAGGUUUUUUUGGAAAGUAUUAUGUUACGCCGUUCGGAUCUGCACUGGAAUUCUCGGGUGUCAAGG,-2.47
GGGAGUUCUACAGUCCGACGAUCGCCACUGUUCACCAGUCCUACCCACACCAUGCCACACAGCUCCAUGCCCACCAGCCGCAGCCGGCUACCACGCCUACUGGAAGCCAGCCGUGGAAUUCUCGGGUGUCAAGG,-0.0396
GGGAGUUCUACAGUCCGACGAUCUCCUGUGCUACACAUCGUAUGUACCGAAUCGGGCCCCCCGGCCCCCCGGGCCCCCCGGGGAAAGUAUUAUGUUACGCCGUUCGGAUCUGCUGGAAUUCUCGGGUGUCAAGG,0.0328
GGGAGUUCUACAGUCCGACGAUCUCCUGUGCUACACAUCGUAUGUACCGAAUCGGGAAAAAGGGGAAAAAGGGGAAAAAGGGGAAAGUAUUAUGUUACGCCGUUCGGAUCUGCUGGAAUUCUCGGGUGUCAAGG,-0.105
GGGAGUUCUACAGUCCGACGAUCUCCUGUGCUACACAUCGUAUGUACCGAAUCGGGGAAAAAGGGGUUUUUUUGGGGAGGGGAAAGUAUUAUGUUACGCCGUUCGGAUCUGCAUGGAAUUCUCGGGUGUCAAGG,0.118
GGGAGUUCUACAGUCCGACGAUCCCUCAAGUCCUGUGCUACACAUCGUAUGUACCGAAUCGGGCGGGGCGGCGGGGAAAGUAUUAUGUUACGCCGUUCGGAUCUGCACUUCCAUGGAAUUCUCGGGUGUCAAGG,-0.0957

# Study 3
# Target: CCNB1, cyclin fold, Cln2 fusion (human)
# Technique: yeast growth competition, sequencing
# Sample: yeast
# Setting: strong parent motif
# Baseline: not given
# Direction: higher = stronger binding
# Starting sequence: RBL2 docking peptide (human); STTRRRLFVENDS
Variant,normalised enrichment score
STTRRRLFVENDD [S13D],2.06
STPRRRLFVENDS [T3P],1.01
ITTRRRLFVENDS [S1I],0.448
STTRRYLFVENDS [R6Y],0.131
STTRRRLFVLNDS [E10L],-0.17
SRTRRRLFVENDS [T2R],1.11
STTERRLFVENDS [R4E],0.659
STTRRRLFVEQDS [N11Q],1.35
STTRRRLFYENDS [V9Y],1.12
STTRRRLFVENAS [D12A],-0.0842
STTRRRPFVENDS [L7P],0.455
STWRRRLFVENDS [T3W],0.823
SSTRRRLFVENDS [T2S],1.13
STTRRRLFVCNDS [E10C],0.536
STTRRRLFLENDS [V9L],0.748
STTRRRVFVENDS [L7V],0.686
STTRRSLFVENDS [R6S],0.915
STTRRRLFVEKDS [N11K],1.25
STTSRRLFVENDS [R4S],-0.165
STTRRRLFVENDI [S13I],1.17
STTRRRLFVVNDS [E10V],1.39
STTRWRLFVENDS [R5W],0.357

# Study 4
# Target: RING finger protein unkempt homolog, zinc fingers 1-6, GST-SBP tag (UNK, Homo sapiens, UniProt Q9C0B0, residues 30-357)
# Technique: RNA Bind-n-Seq
# Molecule type: RNA
# Sample: in vitro
# Concentration: not given
# Setting: RNA with constant flanks, human-mouse chimeric sites, ends assumed
# Baseline: input RNA pool
# Direction: higher = stronger binding
# Residues (chain): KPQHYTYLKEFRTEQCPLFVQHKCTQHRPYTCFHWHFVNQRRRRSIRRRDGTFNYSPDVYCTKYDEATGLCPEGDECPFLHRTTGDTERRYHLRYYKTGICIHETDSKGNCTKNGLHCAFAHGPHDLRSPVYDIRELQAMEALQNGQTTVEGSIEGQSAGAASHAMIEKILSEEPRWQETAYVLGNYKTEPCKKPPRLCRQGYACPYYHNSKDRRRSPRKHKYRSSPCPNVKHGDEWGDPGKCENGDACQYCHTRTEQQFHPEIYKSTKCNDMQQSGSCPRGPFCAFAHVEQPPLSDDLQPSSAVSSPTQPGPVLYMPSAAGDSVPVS
Oligonucleotide,bound/input enrichment
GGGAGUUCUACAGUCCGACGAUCAAAGUGGACUAUGGCGAGUACAUGGAUAAAAAUAAUGUGAGGCGGCAAGCAACAACAAUCAUAGCUGAUAACAUUAUAUUUCUGAGUGACCAGACGAAAGAAAAGGCAUAGAACGGAUGACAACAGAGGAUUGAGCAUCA,1.36 ratio
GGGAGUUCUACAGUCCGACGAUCGGACAUCUGUCAAAUUGUUAUGUUCCUGUGAAACAAGUGAGCACUUUUCAUAUACUAAUCUGCUUGUACAUCUGUAUGAUAGAGAAAUGUAAAUAUGUUAAUCCAAGCAAUGUGUCACUUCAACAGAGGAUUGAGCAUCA,0.173 ratio
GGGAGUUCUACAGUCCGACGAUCCUGGCCUGGCCCUCCCCUCUAGUGACCUUUCGUAUAGUCACUGCUUCUGCAUCAGAUACUUUCAGCUGCAACUCCCUACUGGGUGGGGCACCCAUUUGAGGCAGGGUGUUUUGGUACCCUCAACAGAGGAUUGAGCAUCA,0.448 ratio
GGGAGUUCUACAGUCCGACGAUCCUGGCACUCUAUCAGAUAUAUUAAUUUUUUAAUGUAGAUGUAAUUUUAAAAAUGAAUGGCUAGUUUACACGUUUAACUAGGGUUUUACUAUAUAUGUGUACAUAUGUAUAUAUAUAUAUACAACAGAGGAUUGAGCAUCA,3.69 ratio
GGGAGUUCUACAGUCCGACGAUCGAUGAUAAUCACACAAACAAGUCACUGUUACAUGACCAGCCUUGGGAUUCUUUUCCUGAUUAGUAUUCUCCCUGGAACCACUGGUCAAGGGGAAUCAAGACGACAAGAACCCGGGGACUUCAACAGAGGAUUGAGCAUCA,0.173 ratio
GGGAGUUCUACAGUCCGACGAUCGAGUCGAUUAUGGAAACAACAAUUCGUUAUCUUGCAGCCUCAGUGUUCACUUGCUUGGCGAUAGCAUUGGGGUUUUAUAGGUUCUGGGGAAGUAGUAGACGAUGAUGCUGCCGCUGCUGCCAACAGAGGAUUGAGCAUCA,0.875 ratio
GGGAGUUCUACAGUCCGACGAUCUACUCAACUUUCUUGCCACAUUUUGAAUUCCAAGACAUUAUCCCUCCAGAUGACUUCCUAACGAGUGAUGAAGAGCAAGAUUUGGUUUUAUUUGGAACUAUGAGAGGUCAUGUGGUUGGACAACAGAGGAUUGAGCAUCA,0.233 ratio
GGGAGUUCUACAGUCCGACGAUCGUGACUGACAUUAAAAUUUCCCCUCAGAAAAGAACUGCAGUAGUCACCAUAAUUCCAUCUGUGGUGAGUGCCAGUCAGAUUGUGGAGCUGGUCCCAGACCUCAGUUUAGACAUGGGAACUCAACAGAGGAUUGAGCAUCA,0.435 ratio
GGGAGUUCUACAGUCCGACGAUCGUGUCCUGCUUUCAACUUAAAUCACUGAGGCAUCUCUACUAUUCUGUGAGCAUCAGGACUGUAGCGCUGUGUCACCACAUGAGAGUUCAGAAGCAGCCUUUCUGUGGAGAGUGAGAAUGACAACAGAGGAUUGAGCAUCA,0.0964 ratio
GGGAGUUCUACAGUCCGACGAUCUAAGUCCUGUGCCAGCACUUCGCUCAUAAAGUUUUAAAUUCUGGACCAAUUGUGUUUGUUUCCUGAUUAUUGUAUCCAAUACUUUGCCUAGUAUGUAACUCACUCUUCUGGAUAAAUAAACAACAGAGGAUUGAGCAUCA,2.16 ratio
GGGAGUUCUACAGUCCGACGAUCGAUCCACAGUGGUCUGAGGAGCAACUCAUUGCUGCAAAAUUCUGUUUUGCUGGCCUUGUUAUAGGGCAGACUGAAGUGGACAUCAUGAGUCAUGCCACACAGGCUAUAUUUGAAAUACUGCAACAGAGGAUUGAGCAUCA,0.15 ratio
